Measurements from different studies.
Compare with care: the assays were run in different laboratories.

| Structure (SMILES) | organism | test | system | setting | MIC |
| --- | --- | --- | --- | --- | --- |
| CN[C@@H]1[C@H](O)[C@H](NC)[C@H]2O[C@]3(O)[C@H](O[C@@H]2[C@H]1O)O[C@H](C)C[C@@]3(O)CNCCc1ccc(F)cc1 | Mycobacteroides abscessus | – | ATCC 19977 ∆whiB7 | 120 h | 1 to 2 µg/mL |
| OB(O)c1ccc(OCc2ccccc2)nc1F | Enterobacter cloacae | bacterial growth | AmpC-overproducing clinical isolate | cefotaxime alone | 8 µg/mL |
| CCCCCCCCCCCCCC(=O)N[C@H](CCN)C(=O)N[C@H](C(=O)N[C@H]1CCNC(=O)[C@H](CC(=O)O)NC(=O)[C@H](C(C)C)NC(=O)[C@@H](Cc2ccc(O)cc2)NC(=O)[C@H](CCN)NC(=O)[C@H](CC(C)C)NC(=O)[C@@H](Cc2ccccc2)NC(=O)[C@H](CCN)NC(=O)[C@H](CC(C)C)NC1=O)[C@@H](C)O | Enterobacter cloacae | broth microdilution | BNCC 185028 | – | 64 µg/mL |
| [O-][N+]1=C(c2ccccc2)C2=NCCN2c2ccccc21 | Porphyromonas sp. | – | – | – | ≤ 0.06 µg/mL |
| CN1C(=O)[C@@H]2NC(=O)[C@@H]3NC(=O)[C@@H](c4ccc(O)cc4)NC(=O)[C@H](NC(=O)C(N)c4ccc(O)cc4)Cc4c[nH]c5cc(ccc45)-c4cc3cc(c4O)Oc3ccc(cc3)C[C@H]1C(=O)N[C@@H](C(=O)O)c1ccc(O)c(c1)Oc1ccc2cc1 (stereo partly drawn) | Enterococcus faecium | – | WCC 0506, VRE-A | – | 4 to 8 µg/mL |
| CCC(CC)C(=O)O[C@H]1[C@H](C)[C@H](O)[C@H](C)[C@@H](O)[C@@H](C)/C=C/C=C(/C)C(=O)NC2=C3NC4(CCN(CC(C)C)CC4)N=C3c3c(c(O)c(C)c4c3C(=O)[C@@](C)(O/C=C/[C@H](OC)[C@H]1C)O4)C2=O | Mycobacteroides abscessus | – | ATCC 19977 arr deletion | 90% growth inhibition | 0.049 µM |
| CC[C@@H](C)[C@@H](NC(=O)[C@@H](C)NC(=O)[C@@H](CCCCN)NC(=O)[C@@H](CC(C)C)NC(=O)[C@@H](C)NC(=O)[C@H](NC(=O)[C@@H](Cc1c[nH]cn1)NC(=O)[C@@H](CC(C)C)NC(=O)[C@H](NC(=O)[C@H](NC(=O)[C@@H](CCCCN)NC(=O)[C@@H](CCCCN)NC(=O)[C@@H](C)NC(=O)[C@@H](CO)NC(=O)[C@@H](CCCCN)NC(=O)[C@@H](Cc1ccccc1)NC(=O)[C@H](NC(=O)[C@@H](CCCCN)NC(=O)[C@@H](CC(C)C)NC(=O)[C@@H](Cc1ccccc1)NC(=O)[C@@H](CO)NC(=O)[C@@H](CCCCN)NC(=O)[C@@H](Cc1c[nH]c2ccccc12)NC(=O)[C@@H](CCCCN)NC(C)=O)[C@H](C)O)[C@H](C)O)C(C)C)[C@H](C)O)C(=O)N[C@H](CO)C(=O)N[C@H](CO)C(N)=O | Acinetobacter baumannii | – | 964, Mueller-Hinton broth | 24 h, 37 °C | 1.5 µM |
| Cc1ccc(SCC2OC(OC3C(N)CC(N)C(OC4OC(CN)C(O)CC4N)C3O)C(O)C(N)C2O)cc1 (stereo not drawn) | Streptococcus pyogenes | – | M12 MGAS9429 | – | 18.8 µg/mL |
| CC(=O)OC1C(C)C(OC2CC3OCOC3C(C)O2)C=COC2(C)Oc3c(C)c(O)c4c(c3C2=O)C(=O)C=C(NC(=O)C(C)=CC=CC(C(C)OC(=O)C(C)(C)CC(=O)O)C(O)C(C)C(O)C1C)C4=O (stereo not drawn) | Salmonella enterica Typhimurium | – | NCTC 74 | – | > 128 µg/mL |
| COC1C=COC2(C)Oc3c(C)c(O)c4c(c3C2=O)C2=NC3(CCN(CC(C)C)CC3)NC2=C(NC(=O)C(C)=CC=CC(C)C(O)C(C)C(O)C(C)C(OC(=O)c2cncnc2)C1C)C4=O (stereo not drawn) | Mycobacteroides abscessus | – | ATCC 19977 arr knockout | – | 0.033 µM |
| CN1C(=O)[C@@H]2NC(=O)[C@@H]3NC(=O)[C@@H](c4ccc(O)cc4)NC(=O)[C@H](NC(=O)C(NCc4cccc(O)c4O)c4ccc(O)cc4)Cc4c[nH]c5cc(ccc45)-c4cc3cc(c4O)Oc3ccc(cc3)C[C@H]1C(=O)N[C@@H](C(=O)O)c1ccc(O)c(c1)Oc1ccc2cc1 (stereo partly drawn) | Enterococcus faecium | – | brain heart infusion medium | – | 16 to 32 µg/mL |
| CC[C@H](C)[C@H](NC(=O)[C@@H](NC(=O)CN)C(C)C)C(=O)N[C@@H](Cc1ccccc1)C(=O)N[C@@H](CC(N)=O)C(=O)N[C@@H](C)C(=O)N[C@@H](CC(C)C)C(=O)N[C@@H](CCCCN)C(=O)NCC(=O)N[C@H](C(=O)N[C@@H](C)C(=O)N[C@@H](CCCCN)C(=O)N[C@H](C(=O)N[C@H](C(=O)N[C@@H](C)C(=O)N[C@@H](C)C(=O)N[C@@H](CCC(N)=O)C(=O)N[C@@H](CC(C)C)C(=O)N[C@@H](CC(C)C)C(=O)N[C@@H](CCCCN)C(=O)N[C@@H](CCCCN)C(=O)N[C@@H](C)C(=O)N[C@@H](CCCNC(=N)N)C(=O)N[C@H]1CSSC[C@@H](C(=O)O)NC(=O)[C@H](CO)NC(=O)[C@H](CCCCN)NC(=O)[C@H](CC(=O)O)NC(=O)[C@H](CC(C)C)NC(=O)[C@H](CCCCN)NC1=O)C(C)C)[C@@H](C)O)C(C)C | Staphylococcus aureus | – | MRSA NCTC 12493, Mueller-Hinton broth | with: ZnCl2 8 mM | 2 µM |
| CN(C)CCCNC(=O)[C@@H]1NC(=O)[C@@H]2Cc3ccc(cc3)Oc3cc4cc(c3O)-c3ccc5c(c[nH]c5c3)C[C@@H](NC(=O)C(NC(=O)CCCCCN)c3ccc(O)cc3)C(=O)N[C@H](c3ccc(O)cc3)C(=O)N[C@H]4C(=O)N[C@@H](C(=O)N2C)c2ccc(cc2)Oc2cc1ccc2O (stereo partly drawn) | Enterococcus faecium | – | WCC 0586, VRE-A | – | 1 to 2 µg/mL |
| CO[C@H]1/C=C/O[C@@]2(C)Oc3c(C)c(O)c4c(c3C2=O)C2=NC3(CCN(CC(C)C)CC3)NC2=C(NC(=O)/C(C)=C\C=C\[C@H](C)[C@H](O)[C@@H](C)[C@@H](O)[C@@H](C)[C@H](OC(=O)c2cccc(C)c2)[C@@H]1C)C4=O | Mycobacteroides abscessus | – | ATCC 19977 arr deletion | 90% growth inhibition | 0.065 µM |
| CCCCCCCCCCCC[S+]([O-])CC1OC(OC2C(N)CC(N)C(OC3OC(CN)C(O)CC3N)C2O)C(O)C(N)C1O (mixture of isomers) | Streptococcus pyogenes | – | M12 MGAS9429 | – | 18.8 µg/mL |
| CC[C@H](C)[C@H](NC(=O)[C@@H]1CC(=O)N[C@@H](CO)C(=O)N[C@@H](CC(C)C)C(=O)NCC(=O)N[C@@H](CO)C(=O)N[C@@H](CO)C(=O)N2CCC[C@H]2C(=O)N[C@@H](Cc2ccc(O)cc2)C(=O)N[C@@H](CC(N)=O)C(=O)N1)C(=O)N[C@@H](CC(C)C)C(=O)NCC(=O)N[C@@H](Cc1ccc(O)cc1)C(=O)N1CCC[C@H]1C(=O)N[C@@H](C)C(=O)N[C@@H](CC(C)C)C(=O)N[C@H](C(=O)N[C@H](C(=O)N[C@H](C(=O)N[C@@H](Cc1ccc(O)cc1)C(=O)N1CCC[C@H]1C(=O)O)[C@@H](C)CC)C(C)C)[C@@H](C)CC | Trichoderma longibrachiatum | – | – | – | > 128 µg/mL |
| CN(C)CCCNCCCNC(=O)[C@@H]1NC(=O)[C@@H]2Cc3ccc(cc3)Oc3cc4cc(c3O)-c3ccc5c(c[nH]c5c3)C[C@@H](NC(=O)C(N)c3ccc(O)cc3)C(=O)N[C@H](c3ccc(O)cc3)C(=O)N[C@H]4C(=O)N[C@@H](C(=O)N2C)c2ccc(cc2)Oc2cc1ccc2O (stereo partly drawn) | Enterococcus faecium | – | brain heart infusion medium | – | 2 to 4 µg/mL |
| NCC1OC(OC2C(N)CC(N)C(OC3OC(CSc4ccccc4)C(O)C(N)C3O)C2O)C(N)CC1O (stereo not drawn) | Streptococcus pyogenes | – | M12 MGAS9429 | – | 18.8 µg/mL |
| CCCCc1ccc(-c2nc(C)c(C(C)=NNC(=N)N)s2)cc1 | Staphylococcus aureus | – | NRS119 MRSA | – | 2.6 µg/mL |
| C[N+]1=C2C(c3ccc(Cl)cc3)=[N+]([O-])c3ccccc3N2CCC1 | Porphyromonas sp. | – | – | – | 4 µg/mL |
| CO[C@H]1/C=C/O[C@@]2(C)Oc3c(C)c(O)c4c(c3C2=O)C2=NC3(CCN(CC(C)C)CC3)NC2=C(NC(=O)/C(C)=C\C=C\[C@H](C)[C@H](O)[C@@H](C)[C@@H](O)[C@@H](C)[C@H](OC(=O)c2ccccc2F)[C@@H]1C)C4=O | Mycobacteroides abscessus | – | ATCC 19977 arr deletion | 90% growth inhibition | 0.058 µM |
| O=[N+]([O-])c1ccc(C2=[N+]([O-])c3ccccc3N3CCCN=C23)cc1 | Parvimonas micra | – | ATCC 3870 | – | ≤ 0.06 µg/mL |
| CN[C@@H]1[C@H](O)[C@H](NC)[C@H]2O[C@]3(O)[C@H](O[C@@H]2[C@H]1O)O[C@H](C)C[C@@]3(O)CNCc1ccc(F)cc1 | Mycobacteroides abscessus | – | ATCC 19977 ∆whiB7 | 120 h | 16 to 32 µg/mL |
| C[N+]1=C2C(c3ccccc3)=[N+]([O-])c3ccccc3N2CCC1 | Porphyromonas sp. | – | – | – | 4 µg/mL |
| CN[C@@H]1[C@H](O)[C@H](NC)[C@H]2O[C@]3(O)[C@H](O[C@@H]2[C@H]1O)O[C@H](C)C[C@@]3(O)CNCc1ccc(Cl)cc1 | Streptococcus pyogenes | – | ATCC 700294 | – | 0.8 to 1.6 µg/mL |
| [O-][N+]1=C(Cc2ccccc2)C2=NCCCN2c2ccccc21 | Parvimonas micra | – | ATCC 3870 | – | 0.125 µg/mL |
| CN[C@@H]1[C@H](O)[C@H](NC)[C@H]2O[C@]3(O)[C@H](O[C@@H]2[C@H]1O)O[C@H](C)C[C@@]3(O)CNCCC1CCOCC1 | Mycobacteroides abscessus | – | ATCC 19977 ∆whiB7 | 120 h | 8 µg/mL |

Some of these lines once more:
| Structure (SMILES) | organism | test | system | setting | MIC |
| --- | --- | --- | --- | --- | --- |
| [O-][N+]1=C(Cc2ccccc2)C2=NCCCN2c2ccccc21 | Parvimonas micra | – | ATCC 3870 | – | 0.125 µg/mL |
| C[N+]1=C2C(c3ccc(Cl)cc3)=[N+]([O-])c3ccccc3N2CCC1 | Porphyromonas sp. | – | – | – | 4 µg/mL |
| Cc1ccc(SCC2OC(OC3C(N)CC(N)C(OC4OC(CN)C(O)CC4N)C3O)C(O)C(N)C2O)cc1 (stereo not drawn) | Streptococcus pyogenes | – | M12 MGAS9429 | – | 18.8 µg/mL |
| CO[C@H]1/C=C/O[C@@]2(C)Oc3c(C)c(O)c4c(c3C2=O)C2=NC3(CCN(CC(C)C)CC3)NC2=C(NC(=O)/C(C)=C\C=C\[C@H](C)[C@H](O)[C@@H](C)[C@@H](O)[C@@H](C)[C@H](OC(=O)c2cccc(C)c2)[C@@H]1C)C4=O | Mycobacteroides abscessus | – | ATCC 19977 arr deletion | 90% growth inhibition | 0.065 µM |
